Results pooled from the literature.
B1: SCO6712 (Streptomyces coelicolor, UniProt Q9XAL8); chain AKGITARTAPAGGEVRHLKMYAEKLADGQMGYGFEKGKASVPGPLIEVNEGDTLHIEFTNTMDVRASLHVHGLDYEISSDGTAMNKSDVEPGGTRTYTWRTHKPGRRDDGTWRPGSAGYWHYHDHVVGTEHGTGGIRNGLYGPVIVRRKGDVLPDATHTIVFNDMTINNRKPHTGPDFEATVGDRVEIVMITHGEYYHTFHMHGHRWADNRTGILTGPDDPSRVIDNKITGPADSFGFQIIAGEGVGAGAWMYHCHVQSHSDMGMVGLFLVKKPDGTIPGYEPHEHGGATAKSGESGEPTGGAAAHEHEH
B2: aspC A106G/A17N/A218G/A278L/A281T/A8Q/D18E/F210I/F212I/F350Y/G15S/G249S/I187A/I279A/I29V/I33V/I341V/I5L/I68L/I71L/L46M/M321L/M380L/N285S/N30D/N64T/S129T/S135A/S273G/S351L/T100S/V125I/V136I/V375I/Y244C (Escherichia coli, UniProt P00509); chain MFENLTAQPADPILSLNELFRADERPGKVDLGVGVYKDETGKTPVMTSVKKAEQYLLENETTKTYLGLDGLPEFGRCTQELLFGKGSALINDKRARTAQSPGGTGGLRVAADFLAKNTSVKRVWISNPTWPNHKAIFNSAGLEVREYAYYDAENHTLDFDALINSLNEAQAGDVVLFHGCCHNPTGADPTLEQWQTLAQLSVEKGWLPLIDIAYQGFGRGLEEDAEGLRAFAAMHKELIVASSCSKNFSLYNERVGACTLVAADSETVDRAFGQMKALARTNYSSPPAHGASVVATILSNDALRAIWEQELTDMRQRIQRLRQLFVNTLQEKGANRDFSFVIKQNGMFSYLGLTKEQVLRLREEFGVYAVASGRINVAGLTPDNMAPLCEAIVAVL
B3: enzyme (UniProt A0A0P0CH59); chain MRIALFSDIHANLPALEAVLANMETQQLDAIYCLGDLVGYAPWPNEVVAEIRKRRIPTIAGNYDEGVGLWSPNCGCAYKTDTEKDLGQQSIDFTNNVVTEETRKYLRMLPRQLRLTFMDGSKEENKIELLLVHGSPRKINEYLFEDRPEKSFLKMMEEANADLLFFGHTHKPYHRAMPYEHEGQTRYRHAINIGSVGKPKDGDPRTGYVVVELTPESSLTQKDSIKVEFIRVPYDVETAAQAVEASPLPNEFAQMLRTA
B4: enzyme (Acinetobacter baumannii, UniProt A0A5P1UDB1); chain MFIEQDIQLGYVPFPKSRAQQYRDEGCWKSQTHFQLLASLKDRFAQRVAVIQDDKQLTYQQLYDYAIHYGTYLKQQGIRETDFVLLQSPNVIEVFIVIFGLYAIGARPVFCLHGHGSYEIENIARQSRAVGFLKLCGSANESTATDVCEEFSKPNFKLWFRESIVSRSSIEASLPQLQGVAPAFNLRAQSESEDIAFLQLSGGTTGLPKLIPRTHADYIYSIEKSVDVAGLTQDTKQLVVLPVMHNFCMSSPGFLGVFYVGGTVVLSQLTHPRVCFELIEKYQIQQVSLVPAIATLWLNAESLKDYDLSSLQVVQVGGAKLLPSLAEQIIDTLQVKLQQVYGMAEGLVNFTHLDDSDQITIQTQGKKLSHLDEIRIADQDGNALPINAIGHIQTRGPYTINGYYNLPEINQRAFTQDGFYKTGDIGYLDENLNIVVTGREKEQINRSGEKITPSEIEEFILQYPSVKDVCVIGVSDDYLGERIKAIIIPKLDDSEINLKNIRKFLISKNIAHFKIPDEIEVVADFKYTHVGKVNRQKLG
B5: SABP2 (Nicotiana tabacum, UniProt Q6RYA0); chain MKEGKHFVLVHGACHGGWSWYKLKPLLEAAGHKVTALDLAASGTDLRKIEELRTLYDYTLPLMELMESLSADEKVILVGHSLGGMNLGLAMEKYPQKIYAAVFLAAFMPDSVHNSSFVLEQYNERTPAENWLDTQFLPYGSPEEPLTSMFFGPKFLAHKLYQLCSPEDLALASSLVRPSSLFMEDLSKAKYFTDERFGSVKRVYIVCTEDKGIPEEFQRWQIDNIGVTEAIEIKGADHMAMLCEPQKLCASLLEIAHKYN

acsA D449E/I222V (Pseudomonas chlororaphis)
Km (CCCC(=O)O; steady-state kinetics; pH 7): 120 µM

B1 (SCO6712)
Km (CCn1c(=NN=c2sc3cc(S(=O)(=O)O)ccc3n2CC)sc2cc(S(=O)(=O)O)ccc21; steady-state kinetics; pH 7, 37 °C, NaCl 150 mM, with: O2 cosubstrate): 4400 µM

B2
Km (O=C(O)C(=O)Cc1ccccc1; steady-state kinetics; pH 7.5, 25 °C, with: PMP 20 µM, ammonium acetate 10 mM): 620 µM

B3 (enzyme)
Km (O=[N+]([O-])c1ccc(OP(=O)(O)O)cc1; steady-state kinetics; 37 °C, with: Ni2+ 0.25 mM): 13700 µM

B4 (enzyme)
Km (O=C(O)c1cccc(Cl)c1O; steady-state kinetics; pH 7.5, 37 °C, apparent): 30.7 µM

GLAQWIPQV
reporter activation (Jurkat T cells expressing 1G4 TCR; NFAT-eGFP reporter, flow cytometry; peptide; concentration not given, HLA-A*02:01 NY-ESO system): 0.079%

enzyme (Sulfolobus acidocaldarius, UniProt Q4J7B6)
Km (Nc1ncnc2c1ncn2[C@@H]1O[C@H](COP(=O)(O)OP(=O)(O)OP(=O)(O)O)[C@@H](O)[C@H]1O; steady-state kinetics; pH 7.4, 70 °C, apparent): 1660 µM

enzyme (Rhodopseudomonas palustris, UniProt Q6N7F5)
Km (CC(C)C(=O)O; steady-state kinetics; pH 7.5, 37 °C): 72.3 µM

enzyme Y41F (Homo sapiens, UniProt Q08623)
Km (O=c1[nH]cc([C@@H]2O[C@H](COP(=O)(O)O)[C@@H](O)[C@H]2O)c(=O)[nH]1; steady-state kinetics; pH 7, 25 °C): 2.7 µM

ALLQWVAQV
reporter activation (Jurkat T cells expressing 1G4 TCR; NFAT-eGFP reporter, flow cytometry; peptide; concentration not given, HLA-A*02:01 NY-ESO system): 15.9%

MQLMPFGCLLD
binding score (HLA class I histocompatibility antigen, A alpha chain, allele A*02:01 (Homo sapiens, UniProt P04439); conformational ELISA; peptide; concentration not given; reference: positive control peptide, direction not given): 4.2%

B5 (SABP2)
Km (CC(=O)Oc1ccc([N+](=O)[O-])cc1; steady-state kinetics; pH 7.2, 22 °C): 2200 µM

QLIMQLMPF
binding score (HLA class I histocompatibility antigen, A alpha chain, allele A*24:02 (Homo sapiens, UniProt P04439); conformational ELISA; peptide; concentration not given; reference: positive control peptide, direction not given): 58.7%

enzyme (Vanderwaltozyma polyspora, UniProt A7TM80)
Km (CCO; steady-state kinetics; pH 8, 30 °C, with: NADP+): 55900 µM
